Measured values of several laboratories.
Compare with care: the assays were run in different laboratories. Several values in a cell are separate wells, animals, samples, runs or records. Converted amounts (≈) assume the structure as drawn.

`CC[C@H](C)[C@H](NC(=O)[C@H](C)NC(=O)[C@H](CCCCN)NC(=O)[C@H](CC(C)C)NC(=O)[C@H](C)NC(=O)[C@@H](NC(=O)[C@H](Cc1c[nH]cn1)NC(=O)[C@H](CC(C)C)NC(=O)[C@@H](NC(=O)[C@@H](NC(=O)[C@H](CCCCN)NC(=O)[C@H](C)NC(=O)[C@H](C)NC(=O)[C@H](CO)NC(=O)[C@H](CCCCN)NC(=O)[C@H](Cc1ccccc1)NC(=O)[C@@H](NC(=O)[C@H](CCCCN)NC(=O)[C@H](CC(C)C)NC(=O)[C@H](Cc1ccccc1)NC(=O)[C@H](CO)NC(=O)[C@H](CCCCN)NC(=O)[C@H](Cc1c[nH]c2ccccc12)NC(=O)[C@H](CCCCN)NC(C)=O)[C@@H](C)O)[C@@H](C)O)C(C)C)[C@@H](C)O)C(=O)N[C@@H](CO)C(=O)N[C@@H](CO)C(N)=O` gave an MBC50 of 8 µg/mL (≈ 2.73 µM) (Klebsiella pneumoniae; 40 strains).
`C[C@H]1COCCN1c1nc(NCc2cccnc2C(F)(F)F)c2cccnc2n1`: “total adult worm count” 18 (Brugia malayi; SCID mouse; dose not given, 6 weeks post-treatment, dosing x14d).
The parasitemia reduction of `Cl.N/C(CC(O)c1cc2c(F)cc(F)cc2c2cc(C(F)(F)F)ccc12)=N\c1ccc(F)cc1` (stereo not drawn) is reported as 99.9% (Plasmodium berghei; Peters suppressive test; ANKA, infected mice; oral, 4 x 30 mg/kg, day 4; baseline: untreated control).
For `CS(=O)(=O)CCCn1c(Cn2c(=O)n(CC(F)(F)F)c3ccncc32)cc2cc(Cl)ccc21`, “LS mean difference vs placebo” read -0.64 log10 copies/mL (respiratory syncytial virus; RT-qPCR; hospitalized infants 1-24 months, nasal swab; oral, 6, 4.5 or 3 mg/kg daily, day 14, mid dose by age cohort; baseline: placebo).
`Cn1cc(NC(=O)c2cc(NC(=O)CN=C(N)N)cn2C)cc1C(=O)NCCC(=N)N` has a DNA perimeter of 6.16 µm and 6.56 µm and 6.63 µm (Bacillus subtilis; bacterial cytological profiling; ATCC 6633).
`CCCCc1ccc(CNc2nc(N(C)C)nc(N(C)C)c2/N=N/c2ccc(Cl)cc2)cc1` has a mortality of 33.3% (Plutella xylostella; leaf dipping; 3.13 mg/L).
The MIC90 of `Cn1c(=O)ccc2ccc(F)c(CCNC[C@H]3CN(c4cnc5c(n4)NC(=O)CO5)C(=O)O3)c21` is reported as 1 µg/mL (≈ 2.13 µM) (Citrobacter spp.).
Under “mean survival time”, `Cl.N=C(CC(O)c1cc2c(F)cc(F)cc2c2cc(C(F)(F)F)ccc12)Nc1ccc(Br)cc1` (stereo not drawn) is recorded as 30 days (Plasmodium berghei; Peters test; ANKA, mice; oral, 4 x 30 mg/kg).
`Nc1ncnc2c1ncn2[C@@H]1O[C@@H]2COP(=O)(O)O[C@H]3[C@@H](O)[C@H](n4cnc5c(=O)[nH]cnc54)O[C@@H]3COP(=O)(O)O[C@H]2[C@H]1O` has a fold enrichment of 8.43 (West Nile virus; RNA sequencing, refers to: signaling, interferon gamma, R-HSA-877300; HFF-1 cells; concentration not given, upregulated pathway; baseline: WNV-infected untreated cells).

Repeated from above:
`CC[C@H](C)[C@H](NC(=O)[C@H](C)NC(=O)[C@H](CCCCN)NC(=O)[C@H](CC(C)C)NC(=O)[C@H](C)NC(=O)[C@@H](NC(=O)[C@H](Cc1c[nH]cn1)NC(=O)[C@H](CC(C)C)NC(=O)[C@@H](NC(=O)[C@@H](NC(=O)[C@H](CCCCN)NC(=O)[C@H](C)NC(=O)[C@H](C)NC(=O)[C@H](CO)NC(=O)[C@H](CCCCN)NC(=O)[C@H](Cc1ccccc1)NC(=O)[C@@H](NC(=O)[C@H](CCCCN)NC(=O)[C@H](CC(C)C)NC(=O)[C@H](Cc1ccccc1)NC(=O)[C@H](CO)NC(=O)[C@H](CCCCN)NC(=O)[C@H](Cc1c[nH]c2ccccc12)NC(=O)[C@H](CCCCN)NC(C)=O)[C@@H](C)O)[C@@H](C)O)C(C)C)[C@@H](C)O)C(=O)N[C@@H](CO)C(=O)N[C@@H](CO)C(N)=O` gave an MBC50 of 8 µg/mL (≈ 2.73 µM) (Klebsiella pneumoniae; 40 strains).
`C[C@H]1COCCN1c1nc(NCc2cccnc2C(F)(F)F)c2cccnc2n1`: “total adult worm count” 18 (Brugia malayi; SCID mouse; dose not given, 6 weeks post-treatment, dosing x14d).
